Results pooled from the literature.
Protocols differ between the studies behind these lines. ± marks the error that the study gave.
Sequence of UniProt P39900 (whole entry, looked up): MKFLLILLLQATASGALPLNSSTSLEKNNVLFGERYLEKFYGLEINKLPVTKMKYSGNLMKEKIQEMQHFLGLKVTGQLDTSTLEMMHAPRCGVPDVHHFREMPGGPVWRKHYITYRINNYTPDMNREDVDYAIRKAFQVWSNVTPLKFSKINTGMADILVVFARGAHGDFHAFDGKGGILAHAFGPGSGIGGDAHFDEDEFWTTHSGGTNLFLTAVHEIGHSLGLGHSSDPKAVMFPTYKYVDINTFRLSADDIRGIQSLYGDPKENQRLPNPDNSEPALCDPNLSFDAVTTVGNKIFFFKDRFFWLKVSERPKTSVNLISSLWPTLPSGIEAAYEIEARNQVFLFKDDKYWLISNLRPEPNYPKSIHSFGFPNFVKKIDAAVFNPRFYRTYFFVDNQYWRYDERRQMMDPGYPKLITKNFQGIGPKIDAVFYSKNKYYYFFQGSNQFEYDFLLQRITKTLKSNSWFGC
Sequence of UniProt Q8NFJ6 (whole entry, looked up): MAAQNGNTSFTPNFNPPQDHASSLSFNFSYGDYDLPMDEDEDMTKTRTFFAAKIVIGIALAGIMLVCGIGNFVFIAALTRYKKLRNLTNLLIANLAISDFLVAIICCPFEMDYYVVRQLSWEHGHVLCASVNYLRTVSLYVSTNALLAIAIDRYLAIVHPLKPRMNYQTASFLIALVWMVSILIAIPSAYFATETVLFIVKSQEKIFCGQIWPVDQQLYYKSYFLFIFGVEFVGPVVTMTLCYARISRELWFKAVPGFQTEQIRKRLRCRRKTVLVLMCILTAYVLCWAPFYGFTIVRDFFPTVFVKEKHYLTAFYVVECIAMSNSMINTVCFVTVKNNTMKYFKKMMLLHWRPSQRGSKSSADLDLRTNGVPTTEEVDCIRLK

COc1cc(Nc2ncc(F)c(Nc3ccc4c(n3)NC(=O)C(C)(C)O4)n2)cc(OC)c1OC
IC50 (Macrophage metalloelastase (MMP12, Homo sapiens, UniProt P39900); metalloproteinase-12): > 10 µM

CC[C@H](C)[C@H](NC(=O)[C@H](Cc1ccccc1)NC(=O)[C@H](CCC(=O)O)NC(=O)[C@H](CCCNC(=N)N)NC(=O)[C@H](C)NC(=O)[C@H](C)NC(=O)[C@H](CCC(N)=O)NC(=O)[C@H](CCC(=O)O)NC(=O)[C@H](CCC(=O)O)NC(=O)[C@H](CC(C)C)NC(=O)[C@H](Cc1ccc(O)cc1)NC(=O)[C@H](CO)NC(=O)[C@H](CO)NC(=O)[C@@H](NC(=O)[C@H](CC(=O)O)NC(=O)[C@H](CO)NC(=O)[C@@H](NC(=O)[C@H](Cc1ccccc1)NC(=O)[C@@H](NC(=O)CNC(=O)[C@H](CCC(=O)O)NC(=O)[C@H](C)NC(=O)CCc1c[nH]cn1)[C@@H](C)O)[C@@H](C)O)C(C)C)C(=O)N[C@@H](C)C(=O)N[C@@H](Cc1c[nH]c2ccccc12)C(=O)N[C@@H](CC(C)C)C(=O)N[C@H](C(=O)N[C@@H](CCCNC(=N)N)C(=O)NCC(=O)N[C@@H](CCCNC(=N)N)C(=O)N[C@@H](CCCCNC(=O)COCCOCCNC(=O)COCCOCCNC(=O)CC[C@H](NC(=O)CCCCCCCCCCCCCCCCC(=O)O)C(=O)O)C(=O)NCC(=O)NCC(=O)N[C@@H](CO)C(=O)N[C@@H](CCCCNc1c(NCCCCCN(O)C(=O)CCC(=O)NCCCCCN(O)C(=O)CCC(=O)NCCCCCN(O)C(C)=O)c(=O)c1=O)C(=O)O)C(C)C [zirconium-89 labelled]
tissue uptake (rat, kidney; iv, 3 nmol/kg, 168 h, ex vivo): 7.15 %ID/g

C[C@@H](NC(=O)N1C(=O)[C@H](Cc2ccnc(N)c2)[C@H]1C(=O)O)C1CCCCC1
incidence of AEs excluding prolonged aPTT (healthy adult Chinese volunteers; continuous intravenous infusion, 1.0 mg/kg/h, 5-day infusion, CTCAE 5.0 grading): 37.5%

C=CC(=O)Nc1cc(Nc2nccc(Nc3cc(Cl)c(F)cc3C(C)(C)O)n2)c(OC)cc1N1CC[C@@H](N(C)C)C1
mouth ulceration TEAE (human; oral, dose not given): 17.6%

CCN(CCO)CCCC(C)Nc1ccnc2cc(Cl)ccc12 (stereo not drawn)
patients with adverse event (item: Irritability grade 1; newly diagnosed glioblastoma patients; oral, 400 mg/dose, with radiotherapy and temozolomide): 14%

C[C@]1(CO)Cc2ncn(-c3ccc(C#N)c(Cl)c3)c2C(=O)O1
drug-related Acne incidence (Japanese subjects; 80 mg single dose): 0%

CNC(=O)c1cc(Oc2ccc(NC(=O)Nc3cc(C(C)(C)C)nn3-c3ccc4ncccc4c3)c(F)c2)ccn1
related SAE (left ventricular dysfunction, NCI CTC v3.0; human patients; oral, all dose levels): 2%

COc1cc2c(Oc3ccc4[nH]c(C)cc4c3F)ccnc2cc1OCC1(N)CC1
bone pain incidence (paediatric recurrent refractory sarcoma; 12 mg): 0%

CC1(C)C(=O)N(c2ccc(C#N)c(C(F)(F)F)c2)C(=S)N1c1ccc(C(N)=O)c(F)c1
central volume of distribution (population PK base model; human; dose not given): 46.8 L

O=C(Nc1ccccc1)C1CCN(C(=O)Oc2cccnc2)CC1
subjects with Phlebitis adverse event (adverse event reporting; healthy women; oral, 60 mg): 7.1%

C[C@@H](O)[C@@H](CO)NC(=O)[C@@H](CCCNC(=N)N)NC(=O)[C@@H]1CCCN1C(=O)[C@@H]1CSSC[C@H](NC(=O)[C@H](Cc2ccccc2)NC(=O)CN2CCN(CC(=O)O)CCN(CC(=O)O)CCN(CC(=O)O)CC2)C(=O)N[C@@H](Cc2ccc(O)cc2)C(=O)N[C@@H](Cc2ccccc2)C(=O)N[C@@H](CCC(N)=O)C(=O)N[C@@H](CC(N)=O)C(=O)N1 [gallium-68 labelled]
tissue uptake (healthy Wistar rat, adrenals; intravenous, 8 MBq, 60 min, individual animals): 0.11 %ID/g

CN1CCN(c2cc(-c3ccncc3)c(-c3ccc4ccccc4c3)nn2)CC1
activation (Prokineticin receptor 2 (PROKR2, Homo sapiens, UniProt Q8NFJ6); agonist, FLIPR; 12.5 µM): 1.1%

Cn1c(-c2ccc(C(N)=O)cc2F)nnc1C(C)(C)Oc1c(F)cc(Cl)cc1F
subjects with drug-related TEAE (human; oral, dose not given, single ascending dose all doses): 11.1%

CC[C@H](C)CCCCC(=O)N[C@@H](CCN)C(=O)N[C@H](C(=O)N[C@@H](CCN)C(=O)N[C@H]1CCNC(=O)[C@H]([C@@H](C)O)NC(=O)[C@H](CCN)NC(=O)[C@H](CCN)NC(=O)[C@H](CC(C)C)NC(=O)[C@@H](Cc2ccccc2)NC(=O)[C@H](CCN)NC1=O)[C@@H](C)O
concentration at steady state (critically ill patients, AKI, plasma; intravenous, 150 mg/day, 6 h, median): 3000 ng/mL

O=C1Nc2cc3[nH]nc(-c4ccncc4)c3cc2CN1Cc1ccccc1
patients with back pain (CTCAE v4.03; advanced solid tumour patients; intravenous, 1.8 mg/kg, schedules 1/2): 100%

C[C@H]1CN(c2n[nH]c3nc(N[C@H]4CC[C@H](NS(=O)(=O)CCC(F)(F)F)CC4)ncc23)CCO1
remaining binding (Small ribosomal subunit protein uS3 (Homo sapiens, UniProt P23396); Kinobeads competition, item: RPS3; 0.16 µM, unit not given; baseline: vehicle): 0.97

Cc1cc2c(c(O)c1O)C(=O)c1c(O)cc(O)cc1C2=O
cell viability (HK-2 co-cultured with HepaRG; MTT; 33.33 µM, 48 h; baseline: untreated control): 83.5 ± 6.02%

CN(C(=O)n1cnc(-c2ccc[n+]([O-])c2)c1)C1CCCCC1
concentration (Wistar rat, hippocampus; oral, 10 mg/kg/day, 24 h, repeated 5 days): 9.4 ± 0.8 ng/g

C[C@H]1CN(C(=O)CC#N)[C@]12CCN(c1ncnc3[nH]ccc13)C2
AUC at NOAEL (dog, male; oral, 3 mg/kg repeated, 3 months): 9900 ng·h/mL

CCc1ccc(CC/C=C/c2ccc3c(c2)C(=O)CC3)cc1
potassium (Sprague-Dawley rat, male, serum; oral, 450 mg/kg/day, 14 days): 4.78 mM

CC[C@H](C)[C@@H]1NC(=O)[C@@H]2CCCN2C(=O)[C@H](CC(C)C)NC(=O)[C@H](CC(C)C)NC(=O)CNC(=O)[C@@H](NC(=O)[C@@H](NC(=O)[C@H](CC(=O)O)NC(=O)CNC(=O)[C@@H](NC(=O)[C@H](C)NC(=O)CNC(=O)[C@H](CCCCN)NC(=O)[C@H](CC(C)C)NC(=O)[C@H](CC(C)C)NC(=O)[C@H](CCCCN)NC(=O)CNC(=O)[C@@H](NC(=O)[C@@H](N)CC(C)C)C(C)C)C(C)C)C(C)C)CSSC[C@@H](C(=O)O)NC1=O
log2 fold change (RNA-seq, item: Pfkfb3; mouse, traumatic brain injury model, frontal cortex and hippocampus; dose not given; baseline: TBI alone): -1.77

A few entries again:
C[C@H]1CN(c2n[nH]c3nc(N[C@H]4CC[C@H](NS(=O)(=O)CCC(F)(F)F)CC4)ncc23)CCO1
remaining binding (Small ribosomal subunit protein uS3 (Homo sapiens, UniProt P23396); Kinobeads competition, item: RPS3; 0.16 µM, unit not given; baseline: vehicle): 0.97

C[C@]1(CO)Cc2ncn(-c3ccc(C#N)c(Cl)c3)c2C(=O)O1
drug-related Acne incidence (Japanese subjects; 80 mg single dose): 0%
